Measured values from different studies.
Every numbered part comes from another study and shows a few of its results, in no order. Substitutions count along the parent as printed.
Chain of UniProt Q8RYC8 (whole entry, looked up): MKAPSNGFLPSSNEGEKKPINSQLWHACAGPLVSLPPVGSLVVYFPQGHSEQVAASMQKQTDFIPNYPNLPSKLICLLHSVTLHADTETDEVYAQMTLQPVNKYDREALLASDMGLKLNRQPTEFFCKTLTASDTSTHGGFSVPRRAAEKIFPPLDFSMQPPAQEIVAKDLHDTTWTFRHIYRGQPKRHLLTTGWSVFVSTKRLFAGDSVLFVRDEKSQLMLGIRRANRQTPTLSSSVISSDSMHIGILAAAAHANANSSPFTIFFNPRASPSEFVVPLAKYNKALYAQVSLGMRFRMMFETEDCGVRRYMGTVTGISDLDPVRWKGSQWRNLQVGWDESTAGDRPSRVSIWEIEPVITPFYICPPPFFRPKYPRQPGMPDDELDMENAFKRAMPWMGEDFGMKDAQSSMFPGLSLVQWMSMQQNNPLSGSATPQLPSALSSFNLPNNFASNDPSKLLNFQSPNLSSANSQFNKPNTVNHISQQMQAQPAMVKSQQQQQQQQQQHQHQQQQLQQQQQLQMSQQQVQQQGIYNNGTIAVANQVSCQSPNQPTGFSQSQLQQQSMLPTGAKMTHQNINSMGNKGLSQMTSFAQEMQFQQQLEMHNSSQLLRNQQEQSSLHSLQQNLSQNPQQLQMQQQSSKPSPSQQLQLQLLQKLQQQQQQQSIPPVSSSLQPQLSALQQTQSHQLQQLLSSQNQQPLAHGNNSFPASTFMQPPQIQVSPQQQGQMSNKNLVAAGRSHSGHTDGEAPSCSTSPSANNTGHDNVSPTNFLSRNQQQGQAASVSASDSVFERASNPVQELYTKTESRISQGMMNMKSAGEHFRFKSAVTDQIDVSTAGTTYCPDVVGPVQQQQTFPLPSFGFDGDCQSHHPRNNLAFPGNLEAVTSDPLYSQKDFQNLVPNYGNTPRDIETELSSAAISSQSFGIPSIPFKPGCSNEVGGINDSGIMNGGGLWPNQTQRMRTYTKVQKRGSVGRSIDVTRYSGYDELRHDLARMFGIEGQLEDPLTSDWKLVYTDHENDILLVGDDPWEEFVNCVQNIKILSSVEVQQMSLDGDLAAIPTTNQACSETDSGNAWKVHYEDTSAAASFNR

Sample 1
Target: TAR DNA-binding protein 43, full length, His tag (TARDBP, Homo sapiens, UniProt Q13148, residues 1-414)
Technique: RNA Bind-n-Seq
Form: RNA
Matrix: in vitro
Concentration: 20 nM
Notes: 6-mer, flanks averaged, single round
With: 150 mM LiCl
Relative to: input library
Reading: higher = stronger binding
Endpoint: 6-mer enrichment (R)
Oligonucleotide = CGCAGA; value = 0.866
Oligonucleotide = GUGGUU; value = 1.39
Oligonucleotide = UCUUGG; value = 0.995
Oligonucleotide = CCAAGG; value = 0.887
Oligonucleotide = CGCGUU; value = 0.966
Oligonucleotide = AAGUGU; value = 1.29
Oligonucleotide = GGUCGC; value = 1
Oligonucleotide = UGAAAU; value = 0.901

Sample 2
Target: RNA binding protein fox-1 homolog 2, RRM domain, GST-SBP tag (RBFOX2, Homo sapiens, UniProt O43251-10, residues 100-194)
Technique: RNA Bind-n-Seq
Form: RNA
Matrix: in vitro
Concentration: 365 nM
Notes: natural RNA segment, single round, ends assumed
Relative to: no-protein control
Reading: higher = stronger binding
Endpoint: RBNS enrichment (R)
Shared flanks, not repeated: GGGAGUUCUACAGUCCGACGAUC … UGGAAUUCUCGGGUGCCAA
Residues (chain): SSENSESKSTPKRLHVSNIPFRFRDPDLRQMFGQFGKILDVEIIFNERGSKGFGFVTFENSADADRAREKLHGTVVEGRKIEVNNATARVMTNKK
Oligonucleotide = UGUUUUAUUGCCACAGAAAUUCUCUUUAAGAUCUGAGCUCUCCUGGUAAGAGUCUUUAUUAAAGUUUUAAGUGUCUAAAGGGACUGUCCACGCCUGUACAUUUCAGAUGG; value = 0.356
Oligonucleotide = GAACAUCAGCCCAAAAGACAGAAGAUUUUAUCACUCAUCUACCCCAAAGAUAAAGUUGUAUUUUUUUCUUAGAAUGGCCUUUAAUUCCCUGUGGCAAUUACAGUUUUUGA; value = 0.587
Oligonucleotide = GCCUUAGAGUAAGUGGAAAGGACUUCUAAAAUGUGUGUGUGCUUUGCCUUCCAGAAAGCCAUCUUUGGGCUACUGUAAUAUGACAAAUAAAAUCCUCACUGUGUGCAUCC; value = 0.698
Oligonucleotide = GCCUCAAGACUCUUUUGCCUCAGUCAAGACUGUUAUAUGUAGCUGUUGUCUUUCCUGUCCCAACCUACACGGGUCUCUGUAACAUUCCACUAUUCAAACUUCCAAGGAGU; value = 0.229
Oligonucleotide = CUCUGAAGCCUUUAAACUCUGAAGAGAAUUGUUUCAGAGUUAUUCCAAGCACUUGUGCAACUUGGAAAAACAGACUUGGGUUGUGGGAACAGUUGACAGCGUUCUGAAAA; value = 0.96
Oligonucleotide = UUUUUUUUGGUUUCUUGAGACAGGGUUUCUCUGUUUAGCUCUGGCUGUAGACCAGCUGGCCUCAAACUCAGAAAUCCGCCUGUCUCUGCCUCCCGAGCACUGGGAUUAAA; value = 0.266
Oligonucleotide = AUGCCAUGGAAGGUCCAGAAGAAAGACGCCUUCUCACCCAUCCUGAAGCUUUGGCAGCCUUCUGGAACGUCCCUCAUCCCCAGAAUCUCCCUUCUUACCCGAGUGCCUCC; value = 0.385
Oligonucleotide = GUGUAGCAGCCUCCAGGCAGGAUUCAGCACAACACUGGGGAGUCACCCUUCCCUCGGGCCUCUGCCUACCAACAACUGGGCUUAUCACUGGGAAAACACAAAAAAUUACA; value = 0.471

Other studies, line by line
P1: viral docking peptide; CKVKRKLFGSENI; partner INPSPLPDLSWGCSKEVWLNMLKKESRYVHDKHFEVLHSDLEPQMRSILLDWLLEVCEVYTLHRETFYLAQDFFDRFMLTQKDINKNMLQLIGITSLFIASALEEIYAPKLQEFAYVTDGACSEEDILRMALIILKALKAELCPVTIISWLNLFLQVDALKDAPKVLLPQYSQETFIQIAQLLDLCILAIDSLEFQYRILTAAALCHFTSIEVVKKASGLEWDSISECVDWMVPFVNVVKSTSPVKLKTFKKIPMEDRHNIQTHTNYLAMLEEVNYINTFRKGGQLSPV
B1: ARF1 538-665 (Arabidopsis thaliana, UniProt Q8L7G0); chain SRQIRSCTKVHMQGSAVGRAIDLTRSECYEDLFKKLEEMFDIKGELLESTKKWQVVYTDDEDDMMMVGDDPWNEFCGMVRKIFIYTPEEVKKLSPKNKLAVNARMQLKADAEENGNTEGRSSSMAGSR
Molecule = P1 R5K F8L; target or system = CCNE2, cyclin fold, Cln2 fusion (human); assay = yeast growth competition, sequencing; system = yeast; setting = strong parent motif; scale = relative to: not given, higher = stronger binding; endpoint = normalised enrichment score; value = 0.232
Molecule = B1 (ARF1 538-665); target or system = ARF19 948-1086 (Arabidopsis thaliana, UniProt Q8RYC8); assay = two-hybrid; scale = relative to: out of 3 tests, higher = firmer interaction; endpoint = positive tests; value = 0

Repeated from above (other studies, line by line):
Molecule = P1 R5K F8L; target or system = CCNE2, cyclin fold, Cln2 fusion (human); assay = yeast growth competition, sequencing; system = yeast; setting = strong parent motif; scale = relative to: not given, higher = stronger binding; endpoint = normalised enrichment score; value = 0.232
Molecule = B1 (ARF1 538-665); target or system = ARF19 948-1086 (Arabidopsis thaliana, UniProt Q8RYC8); assay = two-hybrid; scale = relative to: out of 3 tests, higher = firmer interaction; endpoint = positive tests; value = 0
